Experimental data collected from several papers.
Every numbered part comes from another study and shows a few of its results, in no order.
Chain of UniProt Q8IYT8 (whole entry, looked up): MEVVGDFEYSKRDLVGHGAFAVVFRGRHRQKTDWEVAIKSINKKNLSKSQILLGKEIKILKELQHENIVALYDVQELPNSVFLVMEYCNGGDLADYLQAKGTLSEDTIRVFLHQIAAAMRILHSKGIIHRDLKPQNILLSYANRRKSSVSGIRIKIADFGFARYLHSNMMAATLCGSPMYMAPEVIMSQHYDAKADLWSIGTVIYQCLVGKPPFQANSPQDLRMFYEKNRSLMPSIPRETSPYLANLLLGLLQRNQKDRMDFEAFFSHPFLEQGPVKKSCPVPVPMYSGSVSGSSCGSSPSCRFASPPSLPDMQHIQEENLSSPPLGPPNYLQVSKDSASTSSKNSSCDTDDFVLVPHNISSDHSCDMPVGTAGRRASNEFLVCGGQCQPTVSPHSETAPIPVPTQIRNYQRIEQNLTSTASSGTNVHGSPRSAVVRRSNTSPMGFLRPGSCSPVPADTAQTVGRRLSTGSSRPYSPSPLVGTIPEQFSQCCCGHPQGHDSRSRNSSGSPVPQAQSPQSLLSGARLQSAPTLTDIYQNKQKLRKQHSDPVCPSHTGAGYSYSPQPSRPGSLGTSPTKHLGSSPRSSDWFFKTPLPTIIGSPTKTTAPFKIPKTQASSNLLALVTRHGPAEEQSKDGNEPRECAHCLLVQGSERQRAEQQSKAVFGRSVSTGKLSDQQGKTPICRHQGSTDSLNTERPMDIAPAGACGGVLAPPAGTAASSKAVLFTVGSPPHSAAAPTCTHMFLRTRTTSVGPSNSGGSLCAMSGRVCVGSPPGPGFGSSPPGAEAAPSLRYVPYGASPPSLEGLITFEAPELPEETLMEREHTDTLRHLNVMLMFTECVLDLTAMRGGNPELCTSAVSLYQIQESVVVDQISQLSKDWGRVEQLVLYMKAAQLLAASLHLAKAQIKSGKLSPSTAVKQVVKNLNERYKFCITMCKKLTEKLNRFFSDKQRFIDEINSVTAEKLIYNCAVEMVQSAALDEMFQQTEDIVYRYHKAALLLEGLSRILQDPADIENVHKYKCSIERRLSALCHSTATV
Chain of UniProt P22607 (whole entry, looked up): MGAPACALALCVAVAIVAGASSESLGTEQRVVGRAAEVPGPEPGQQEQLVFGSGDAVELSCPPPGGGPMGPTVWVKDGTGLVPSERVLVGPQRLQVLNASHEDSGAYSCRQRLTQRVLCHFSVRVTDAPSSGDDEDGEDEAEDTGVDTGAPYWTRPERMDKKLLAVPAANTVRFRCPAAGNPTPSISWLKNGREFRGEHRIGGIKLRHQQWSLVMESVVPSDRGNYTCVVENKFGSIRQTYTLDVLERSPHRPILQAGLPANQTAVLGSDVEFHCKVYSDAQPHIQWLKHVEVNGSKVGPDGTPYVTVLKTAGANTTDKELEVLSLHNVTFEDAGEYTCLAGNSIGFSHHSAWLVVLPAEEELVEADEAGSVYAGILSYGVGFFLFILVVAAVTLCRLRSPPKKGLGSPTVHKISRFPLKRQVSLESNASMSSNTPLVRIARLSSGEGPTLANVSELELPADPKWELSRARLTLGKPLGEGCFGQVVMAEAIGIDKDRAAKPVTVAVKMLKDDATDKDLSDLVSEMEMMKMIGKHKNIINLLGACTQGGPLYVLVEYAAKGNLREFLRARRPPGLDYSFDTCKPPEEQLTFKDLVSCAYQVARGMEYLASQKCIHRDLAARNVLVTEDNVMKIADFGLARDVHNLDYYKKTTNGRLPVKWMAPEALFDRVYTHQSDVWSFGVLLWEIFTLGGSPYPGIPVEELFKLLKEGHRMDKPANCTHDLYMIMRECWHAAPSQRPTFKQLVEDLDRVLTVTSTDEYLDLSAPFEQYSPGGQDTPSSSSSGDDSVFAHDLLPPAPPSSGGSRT
Chain of UniProt Q6PHR2 (whole entry, looked up): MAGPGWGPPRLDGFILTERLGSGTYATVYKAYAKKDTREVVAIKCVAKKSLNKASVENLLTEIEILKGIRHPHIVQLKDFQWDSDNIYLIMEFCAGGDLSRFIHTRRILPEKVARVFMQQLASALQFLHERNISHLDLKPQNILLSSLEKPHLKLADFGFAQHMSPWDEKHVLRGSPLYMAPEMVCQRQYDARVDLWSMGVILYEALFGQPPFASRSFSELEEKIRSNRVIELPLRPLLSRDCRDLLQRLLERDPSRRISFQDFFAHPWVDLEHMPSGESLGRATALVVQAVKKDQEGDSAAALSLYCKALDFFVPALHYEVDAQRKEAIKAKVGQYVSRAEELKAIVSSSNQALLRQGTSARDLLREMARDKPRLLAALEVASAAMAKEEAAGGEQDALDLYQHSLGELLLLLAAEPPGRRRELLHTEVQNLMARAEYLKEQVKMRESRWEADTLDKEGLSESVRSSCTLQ
Chain of UniProt Q99558 (whole entry, looked up): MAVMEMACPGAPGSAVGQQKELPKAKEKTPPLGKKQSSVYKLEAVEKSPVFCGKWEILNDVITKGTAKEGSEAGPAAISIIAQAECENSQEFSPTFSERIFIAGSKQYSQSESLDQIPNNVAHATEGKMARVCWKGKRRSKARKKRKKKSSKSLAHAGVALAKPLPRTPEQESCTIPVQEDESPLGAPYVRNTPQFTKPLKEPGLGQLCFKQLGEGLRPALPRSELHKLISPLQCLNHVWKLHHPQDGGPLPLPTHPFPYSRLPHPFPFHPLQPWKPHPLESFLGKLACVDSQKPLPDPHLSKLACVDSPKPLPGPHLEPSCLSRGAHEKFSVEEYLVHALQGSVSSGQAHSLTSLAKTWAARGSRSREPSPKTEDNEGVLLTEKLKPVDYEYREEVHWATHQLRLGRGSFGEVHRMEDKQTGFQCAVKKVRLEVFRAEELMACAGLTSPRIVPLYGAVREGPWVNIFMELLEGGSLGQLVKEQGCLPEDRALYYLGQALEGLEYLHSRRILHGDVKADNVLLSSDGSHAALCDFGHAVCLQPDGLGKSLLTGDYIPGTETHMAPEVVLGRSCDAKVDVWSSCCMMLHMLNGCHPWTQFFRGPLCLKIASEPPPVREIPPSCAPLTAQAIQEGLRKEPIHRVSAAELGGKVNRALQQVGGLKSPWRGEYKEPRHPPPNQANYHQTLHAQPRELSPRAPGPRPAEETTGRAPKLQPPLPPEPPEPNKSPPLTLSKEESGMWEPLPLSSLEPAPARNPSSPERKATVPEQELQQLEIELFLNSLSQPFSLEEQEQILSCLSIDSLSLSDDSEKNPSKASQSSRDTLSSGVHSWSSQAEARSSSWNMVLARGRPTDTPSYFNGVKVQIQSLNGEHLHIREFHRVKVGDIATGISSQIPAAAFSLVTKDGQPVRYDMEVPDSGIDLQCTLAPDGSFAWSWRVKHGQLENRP
Chain of UniProt P63146 (whole entry, looked up): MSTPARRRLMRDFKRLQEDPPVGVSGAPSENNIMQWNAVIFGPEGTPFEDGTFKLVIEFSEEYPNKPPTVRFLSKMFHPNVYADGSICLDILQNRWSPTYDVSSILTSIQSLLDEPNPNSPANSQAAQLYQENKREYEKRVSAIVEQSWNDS
Chain of UniProt P30291 (whole entry, looked up): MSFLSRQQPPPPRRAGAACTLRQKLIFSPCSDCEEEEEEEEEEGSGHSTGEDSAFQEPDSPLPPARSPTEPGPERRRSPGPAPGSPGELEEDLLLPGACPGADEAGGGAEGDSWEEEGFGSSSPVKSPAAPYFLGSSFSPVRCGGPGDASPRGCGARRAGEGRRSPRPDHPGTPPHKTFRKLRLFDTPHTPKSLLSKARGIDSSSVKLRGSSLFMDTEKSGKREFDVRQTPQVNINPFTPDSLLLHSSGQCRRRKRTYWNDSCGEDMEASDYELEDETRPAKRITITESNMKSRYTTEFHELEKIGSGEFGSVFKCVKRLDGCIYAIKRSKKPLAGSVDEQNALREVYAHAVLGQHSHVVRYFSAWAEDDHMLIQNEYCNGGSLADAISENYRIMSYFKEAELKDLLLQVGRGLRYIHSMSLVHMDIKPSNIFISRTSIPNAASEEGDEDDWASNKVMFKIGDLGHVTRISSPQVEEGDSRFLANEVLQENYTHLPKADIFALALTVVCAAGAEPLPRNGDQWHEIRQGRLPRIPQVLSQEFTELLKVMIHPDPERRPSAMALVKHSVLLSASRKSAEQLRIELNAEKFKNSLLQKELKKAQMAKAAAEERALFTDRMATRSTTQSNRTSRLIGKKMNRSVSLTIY
Chain of UniProt Q9Y385 (whole entry, looked up): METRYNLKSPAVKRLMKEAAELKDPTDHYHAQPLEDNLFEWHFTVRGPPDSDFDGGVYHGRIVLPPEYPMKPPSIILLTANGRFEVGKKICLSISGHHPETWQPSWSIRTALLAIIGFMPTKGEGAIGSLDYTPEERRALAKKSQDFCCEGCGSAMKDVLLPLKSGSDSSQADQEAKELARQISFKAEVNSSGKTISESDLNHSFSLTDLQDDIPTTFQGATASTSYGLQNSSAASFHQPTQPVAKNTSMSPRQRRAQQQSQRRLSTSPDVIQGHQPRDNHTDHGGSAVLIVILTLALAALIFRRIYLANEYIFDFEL

Series 1
Target: Translocator protein (Tspo, Rattus norvegicus, UniProt P16257)
Chain of UniProt P16257 (whole entry, looked up): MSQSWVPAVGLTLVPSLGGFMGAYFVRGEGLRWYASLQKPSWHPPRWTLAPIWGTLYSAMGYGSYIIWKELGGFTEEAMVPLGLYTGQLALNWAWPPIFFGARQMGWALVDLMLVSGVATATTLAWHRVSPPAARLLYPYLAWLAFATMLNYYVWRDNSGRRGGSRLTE
Observed: radioligand binding
Method: radioligand displacement
Concentration: 10 µM
With `CN(C)C(=O)Cn1cc(-c2nc(C3(c4ccc(-c5cnc(N)nc5)cc4)CC3)no2)cn1` the inhibition was 7.97%.
For `C[C@@H]1CN(c2cc(-c3nn(C)c4ccc(OC5(C)CC5)cc34)ncn2)C[C@H](C)O1`, the inhibition was 46.1%.
The inhibition of `Cn1nc(C(=O)NCc2ccc(C(=O)O)cc2)cc1-c1ccc2[nH]ccc2c1` is reported as 6.39%.
`c1ccc(N2CCN(Cc3nc4ccccc4[nH]3)CC2)nc1` gave an inhibition of 2.93%.
For `Cc1c(NC(=O)c2cc(C(N)=O)nc3cc(F)ccc23)c(C(F)(F)F)nn1Cc1ccc(C(C)(C)C)cc1`, the inhibition was -19.8%.

Series 2
Sequence: EDEVSDNSAECVVCLSDVRDTLILPCRHLCLCNTCADTLRYQANNCPICRLPFRALLQIR (RNF157 RING domain (UniProt Q96PX1))
Method: yeast two-hybrid
Sample: yeast
Setting: mostly zero background
Relative to: not given
Reading: higher = stronger interaction
For UBE2O UBC core domain (UniProt Q9C0C9): “lacZ reporter activity” read 0.
UBE2R2 UBC core domain (UniProt Q712K3) — “lacZ reporter activity”: 0.
The “lacZ reporter activity” was 0 (BIRC6 UBC core domain (UniProt Q9NR09)).
UBE2M UBC core domain (UniProt P61081) — “lacZ reporter activity”: 0.
The “lacZ reporter activity” was 0 (UBE2J1 UBC core domain (UniProt Q9Y385)).
The “lacZ reporter activity” was 0 (UBE2I UBC core domain (UniProt P63279)).
It gave 0 for “lacZ reporter activity” (UBE2B UBC core domain (UniProt P63146)).
For UBE2C UBC core domain (UniProt O00762): “lacZ reporter activity” read 0.

Series 3
SMILES: Nc1nccc(-c2c(-c3ccc(F)cc3)ncn2C2CCNCC2)n1
Observed: enzyme activity
Mode: inhibitor
Concentration: 0.5 µM
Relative to: control
The remaining activity was 107% (MAP3K14 (Homo sapiens, UniProt Q99558)).
It gave 101% for remaining activity (GSK3B (Homo sapiens, UniProt P49841)).
FGFR3 (Homo sapiens, UniProt P22607) — remaining activity: 100%.
It gave 106% for remaining activity (WEE1 (Homo sapiens, UniProt P30291)).
It gave 93.1% for remaining activity (ARAF (Homo sapiens, UniProt P10398)).
The remaining activity was 91.2% (FGFR1 (Homo sapiens, UniProt P11362)).
For TEK (Homo sapiens, UniProt Q02763): remaining activity read 101%.
FRK (Homo sapiens, UniProt P42685) — remaining activity: 95.4%.
It gave 99.3% for remaining activity (RPS6KA2 (Homo sapiens, UniProt Q15349)).
It gave 95.5% for remaining activity (ULK3 (Homo sapiens, UniProt Q6PHR2)).
For ULK2 (Homo sapiens, UniProt Q8IYT8): remaining activity read 113%.
The remaining activity was 97.4% (EPHA3 (Homo sapiens, UniProt P29320)).
The remaining activity was 98% (MERTK (Homo sapiens, UniProt Q12866)).
MAP3K5 (Homo sapiens, UniProt Q99683) — remaining activity: 102%.
For MST1R (Homo sapiens, UniProt Q04912): remaining activity read 100%.

Series 4
Host: mouse
Sample: microsomes or S9
Concentration: 2 µM
Time: 0.5 h
`COc1cccc2c1CCC(=O)N2CCCN1CCC(c2ccccc2)CC1` gave a remaining compound of 7.2%.
The remaining compound of `Cc1ccc(Cn2c(=O)c3ccc(C(=O)NC(C)C)cc3n3c(=O)n(C)nc23)cc1` is reported as 94.7%.
`Cc1oc(-c2cccc(F)c2F)nc1CN(C)CC1CCCNC1` (stereo not shown) gave a remaining compound of 0.425%.
For `OC(CN1CCCC1CC1CCCCC1)Cn1cccn1` (stereo not shown), the remaining compound was 16.2%.
With `COc1cccc(-c2csc(C3(c4ccc(OC)c(C)c4)N=C(N)N(C)C3=O)n2)c1` (stereo not shown) the remaining compound was 16%.

Mixed results
Method: RNA Bind-n-Seq
Molecule type: RNA
Sample: in vitro
Relative to: input RNA pool
Reading: higher = stronger binding
UNK zinc fingers 1-6, GST-SBP tag: RING finger protein unkempt homolog, zinc fingers 1-6, GST-SBP tag (UNK, Homo sapiens, UniProt Q9C0B0, residues 30-357)
Chain of UniProt Q9C0B0 (30-357, looked up): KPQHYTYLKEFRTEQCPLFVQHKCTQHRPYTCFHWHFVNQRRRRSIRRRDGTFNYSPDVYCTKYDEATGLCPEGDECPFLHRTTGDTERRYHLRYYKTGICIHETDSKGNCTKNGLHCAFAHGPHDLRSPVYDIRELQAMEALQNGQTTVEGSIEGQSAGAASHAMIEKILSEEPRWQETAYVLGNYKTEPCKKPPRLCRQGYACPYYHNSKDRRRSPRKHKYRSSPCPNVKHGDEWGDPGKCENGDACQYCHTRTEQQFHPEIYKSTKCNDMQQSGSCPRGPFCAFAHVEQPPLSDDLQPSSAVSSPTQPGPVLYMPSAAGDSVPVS
UNK zinc fingers 1-6, SBP tag: RING finger protein unkempt homolog, zinc fingers 1-6, SBP tag (UNK, Homo sapiens, UniProt Q9C0B0, residues 30-357)
`GGGAGUUCUACAGUCCGACGAUCGAGCCCAGCCGGCAGUUUGUAAAGGACUCAAUUCGGCUGGUUAAAAGAUGCACUAAACCCGACAGAAAAGAAUUCCAGAAGAUUGCCAUGGCUACAGCUAUAGGAUUUGCUAUCAUGGGACAACAGAGGAUUGAGCAUCA` gave a bound/input enrichment of 0.238 ratio (UNK zinc fingers 1-6, GST-SBP tag; not given, RNA with constant flanks, human-mouse chimeric sites, ends assumed).
The bound/input enrichment of `GGGAGUUCUACAGUCCGACGAUCUAGUGAAUGGUUUCCCCAGUGUAUAUGAAUGUUUUAAGUGUUUCCAAUAGCUUAUGAAAUUUAGGAGCUUUCUAAUACUCGUUUUAUAAAUUUAAUCAUUUGCUAAUGGAAAUUUUACCACAACAGAGGAUUGAGCAUCA` is reported as 2.31 ratio (UNK zinc fingers 1-6, GST-SBP tag; not given, RNA with constant flanks, human and mouse sites, ends assumed).
With `GGGAGUUCUACAGUCCGACGAUCUGAGGGAGAGAUUUCUGUGCUUUCUCAUAUUUAAUUUGCUGUUUUUAAGAUAUUCCAACCCCGAGUUUUUGAUGGAACUGAUAUAUUGACAGUUCUCACCGAAGUCCUUUUAUAAAGAAUCAACAGAGGAUUGAGCAUCA` the bound/input enrichment was 0.688 ratio (UNK zinc fingers 1-6, SBP tag; 100 nM, RNA with constant flanks, ends assumed).
`GGGAGUUCUACAGUCCGACGAUCAGGGAGAAGAACUCACAAACUCAAAGGAAAACUAUUAAAGAGUUUCUAAUAGUUAAAAGCUAGGAAAGAUUAGGACAACUUUACAAAUGAGAAAUCAAAAAUAAAACACAAGAAAAAGGACAACAGAGGAUUGAGCAUCA` has a bound/input enrichment of 0.617 ratio (UNK zinc fingers 1-6, SBP tag; 100 nM, RNA with constant flanks, vertebrate orthologous sites, ends assumed).

A few entries again (series 4):
`COc1cccc2c1CCC(=O)N2CCCN1CCC(c2ccccc2)CC1` gave a remaining compound of 7.2%.
The remaining compound of `Cc1ccc(Cn2c(=O)c3ccc(C(=O)NC(C)C)cc3n3c(=O)n(C)nc23)cc1` is reported as 94.7%.
`Cc1oc(-c2cccc(F)c2F)nc1CN(C)CC1CCCNC1` (stereo not shown) gave a remaining compound of 0.425%.
For `OC(CN1CCCC1CC1CCCCC1)Cn1cccn1` (stereo not shown), the remaining compound was 16.2%.
